Experimental data collected from several papers.
Parts stem from different laboratories: compare values within a part only.

Sample 1
Target: RING finger protein unkempt homolog, zinc fingers 1-6, SBP tag (UNK, Homo sapiens, UniProt Q9C0B0, residues 30-357)
Chain of UniProt Q9C0B0 (30-357, looked up): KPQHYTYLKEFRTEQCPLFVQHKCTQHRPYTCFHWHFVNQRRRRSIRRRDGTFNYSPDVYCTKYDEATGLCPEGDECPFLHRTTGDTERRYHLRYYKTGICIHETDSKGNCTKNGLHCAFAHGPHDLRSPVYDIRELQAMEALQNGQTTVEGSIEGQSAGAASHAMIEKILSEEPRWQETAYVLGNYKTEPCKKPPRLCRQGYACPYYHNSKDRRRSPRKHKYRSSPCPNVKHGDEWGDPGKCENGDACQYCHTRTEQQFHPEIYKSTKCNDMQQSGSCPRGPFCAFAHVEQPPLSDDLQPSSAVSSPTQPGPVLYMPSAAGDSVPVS
Technique: RNA Bind-n-Seq
Molecule type: RNA
Medium: in vitro
Concentration: 100 nM
Notes: RNA with constant flanks, vertebrate orthologous sites, ends assumed
Baseline: input RNA pool
Reading: higher = stronger binding
With `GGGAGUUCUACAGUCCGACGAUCCACACUAUAUUGUGGCGUUUAGUCAACAUGGAAGUAGACCAGCUCUGCAGAUUUGAAAUUUAGAUUUUUUUUAAUUAUGUACUGGGGACAGGUUUUUGUCGCUUUACAUUGCUUCCUAGUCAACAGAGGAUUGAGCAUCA` the bound/input enrichment was 4.5 ratio.
The bound/input enrichment of `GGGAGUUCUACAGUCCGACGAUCGUUGUACCCCUGCUGUAUAAUAAACACCCUUAGACAUUUAUCAGCUCUUGAUACAAAUGUUAGUCCCUAACCACUUUUUAUAUGUUUUAAAUUUUUGAAAUUCAAGUGUAUCUGCCAUAACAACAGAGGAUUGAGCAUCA` is reported as 2.48 ratio.
`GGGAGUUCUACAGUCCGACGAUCUUUAUUUUUGAGGAGGCAGAAGUUUCUUCUCUCCUUCAAGUAAAACUGAAUUAAUUUGCUUUUAUUUCUGUCUUGGAAAACAAAGAUGGCCUAUUCUCUUAACUGUGUUACAAUACCAUCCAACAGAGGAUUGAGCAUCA` gave a bound/input enrichment of 0.224 ratio.
The bound/input enrichment of `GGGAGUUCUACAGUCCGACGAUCUGCUGUUAAUGCACUGUAUCCCAAGCCUUGUCCGAAUUUUGUGUAAUCUAGGAGAUUUUAUAGUUUUAUUUUAAUGAAUUCCAGAAUGAUCCAGAGCAUAGUCGGAAGUACGUUGUCUUUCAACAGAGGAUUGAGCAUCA` is reported as 2.84 ratio.
`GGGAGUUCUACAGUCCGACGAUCGUGAGGGUCUACUGACCACUCACUAUUAUGUCUGGUAUCUGUAAACACUCUUUUUGUUCUUAGUCUUUUUCUUGUAUAAUUGAUGUCCUUUAAAAUUGCUAAUGUAUAACAGGGCUUAUACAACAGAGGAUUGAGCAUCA` gave a bound/input enrichment of 0.883 ratio.
For `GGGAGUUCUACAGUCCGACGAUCACCAUGGCUGCUUUGUAUGACCUCAGUGAGUCACAGUCUCCCUUGGCAUUUAGUCAGUAGUAGAGCCAGUCAUCCUUAACAAAUCUUUUCACAUUUUAUUUCUUCUGUACAUAGUCGUUUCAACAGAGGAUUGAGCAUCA`, the bound/input enrichment was 1.6 ratio.
`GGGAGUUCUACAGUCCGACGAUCGUCCAAAUAUCUAUAGUCAUUCCUAUAGGAGGUAUAACAUUUAACAACAAAUGUAUCAUAUCUAGUUAAACCGAAUAUAUUUUUAUUAGCCUGUAAAUACUCUUCUGUACUUCAGUGAUUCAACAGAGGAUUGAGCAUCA` gave a bound/input enrichment of 1.87 ratio.
`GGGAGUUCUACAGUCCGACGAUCUUCAUCACUCCUGGGUGCGUGAUUGAGGGUGAAGCAUCCACCAGCACUGCAAGGGGUCCAUAGUAUUUUUUUUUUUUCUGCCUCAAAGUCCCCAAAACCUUCGAGCAGAUAUGGCAGUAGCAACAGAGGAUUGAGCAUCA` gave a bound/input enrichment of 3.02 ratio.

Sample 2
Target: Prothrombin, mature alpha-thrombin (F2, Homo sapiens, UniProt P00734)
Technique: aptamer microarray, sandwich
Molecule type: DNA with 2'F-ANA
Medium: in vitro
Concentration: 200 nM
Notes: whole 15-mer aptamer, many near background
With: Cy3 exosite-II aptamer, 400 nM
Reading: higher = stronger binding
Strand: GGTTGGTGTGGTTGG
Under “mean fluorescence intensity”, `2'F-ANA at 1 2 3 4 6 8 10 11 13 15` is recorded as 123 a.u.
Under “mean fluorescence intensity”, `2'F-ANA at 1 3 5 6 7 8 9 11 12 15` is recorded as 108 a.u.
Under “mean fluorescence intensity”, `2'F-ANA at 2 3 4 5 7 8 11 15` is recorded as 92.7 a.u.
`2'F-ANA at 1 3 4 6 10 11 12 15` — result for “mean fluorescence intensity”: 72.4 a.u.
Under “mean fluorescence intensity”, `2'F-ANA at 1 2 3 6 7 8 9 10 12 13 15` is recorded as 75.4 a.u.
`2'F-ANA at 2 4 5 6 7 10 11 12 13` — result for “mean fluorescence intensity”: 92 a.u.
Under “mean fluorescence intensity”, `2'F-ANA at 1 3 4 7 8 10 11 13 14 15` is recorded as 51.1 a.u.
`2'F-ANA at 5 6 7 8 12`: “mean fluorescence intensity” 198 a.u.
`2'F-ANA at 2 3 5 6 7 8 10 14` — result for “mean fluorescence intensity”: 71.8 a.u.
For `2'F-ANA at 5 6 7 9 10 11 12 13`, “mean fluorescence intensity” read 58.2 a.u.
Under “mean fluorescence intensity”, `2'F-ANA at 2 4 5 6 8 9 13 14 15` is recorded as 48.3 a.u.
`2'F-ANA at 2 10 13 14 15`: “mean fluorescence intensity” 81.1 a.u.
`2'F-ANA at 4 5 10 13 15`: “mean fluorescence intensity” 44.6 a.u.
`2'F-ANA at 1 2 3 5 6 10 11 13 15`: “mean fluorescence intensity” 50.1 a.u.
Under “mean fluorescence intensity”, `2'F-ANA at 1 4 5 11 13 15` is recorded as 49.8 a.u.
Under “mean fluorescence intensity”, `2'F-ANA at 1 2 3 8 9 10 11 12 15` is recorded as 86.1 a.u.
Under “mean fluorescence intensity”, `2'F-ANA at 4 6 7 8 9 11 12 13` is recorded as 319 a.u.
`2'F-ANA at 3 9 11 12 13` — result for “mean fluorescence intensity”: 1220 a.u.
For `2'F-ANA at 1 2 3 5 7 8 9 10 11 13 14`, “mean fluorescence intensity” read 60.9 a.u.
`2'F-ANA at 5 6 7 9 10 12 14`: “mean fluorescence intensity” 50.5 a.u.
`2'F-ANA at 2 4 5 7 8 11 12 13 14 15`: “mean fluorescence intensity” 66.8 a.u.

Sample 3
Target: RNA binding protein fox-1 homolog 2, RRM domain, GST-SBP tag (RBFOX2, Homo sapiens, UniProt O43251-10, residues 100-194)
Technique: RNA Bind-n-Seq
Molecule type: RNA
Medium: in vitro
Concentration: 365 nM
Notes: natural RNA segment, single round, ends assumed
Baseline: no-protein control
Reading: higher = stronger binding
Construct (chain): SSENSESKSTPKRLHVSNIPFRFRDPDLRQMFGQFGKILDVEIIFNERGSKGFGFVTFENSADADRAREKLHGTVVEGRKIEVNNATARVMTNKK
`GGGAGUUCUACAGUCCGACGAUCUGCUCUUAGUUACAUGUAAAAUUUUAGAUUUCUAAAACAGGUGGGCAAUCAUUUUGAAUACUGUUCUGUGACCCUGACUGCUAGUUCUGAGGACACUGGUGGCUGUGCUAUGGAAUUCUCGGGUGCCAA`: “RBNS enrichment (R)” 0.511.
Under “RBNS enrichment (R)”, `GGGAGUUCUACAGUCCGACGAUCAAACAAUACUUUUUGUAUUAUCUAGAGUCAGCCCACUUCAACAGAUUUUUCUCUCACUAACUGAAAGUGUGUUGAGUCUCUACUUUCUGUCAGUCGUGUAUUAUACUAAGUGGAAUUCUCGGGUGCCAA` is recorded as 0.311.
`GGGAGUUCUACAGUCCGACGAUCGCCUUUGUCCGAAAAAUCUAUACUAAUGUGAAAAUUGACUAGAGACCCAAGAAAACCUGGAACUUUGGAUCAAUUUCUUUUUCAUAGGGGUGGAACUUGCACAGCAAAAAUGGAAUUCUCGGGUGCCAA`: “RBNS enrichment (R)” 0.336.
Under “RBNS enrichment (R)”, `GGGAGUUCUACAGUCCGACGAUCUCGGGGAGGGAUUCGGCAUGGCCGCGGGGUACCUUCCCAGGCCAGGGCCCUGGAGGCAACUGGCACGGCCUGGUCCCCCUGCUUUGCUGUAUUCUGAUUCCCCAACCCGCUGGAAUUCUCGGGUGCCAA` is recorded as 0.21.
Under “RBNS enrichment (R)”, `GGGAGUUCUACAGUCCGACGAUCCCUUCCAAGUGUUUGCCAUGUGGCAGGCUUUGUUCUGGCUCAGUUUCCAAUUAGAAAGUGGAAAUCUAGAGAUCCAGAUGAACAUAUCCAUCUCAGGAGGCACGGAGGGAUGGAAUUCUCGGGUGCCAA` is recorded as 0.639.
`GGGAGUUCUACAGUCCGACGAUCUGCUUCUCAUUUGUUUAUGUAUUCAUGAAUACUGCAUAGUCCUGAUUCAGAGACUUUUGCUUUGCUUUCCAACUUGUAUCCCUACAUUCUCACAACAGCCUUCUUACCUCUGGAAUUCUCGGGUGCCAA`: “RBNS enrichment (R)” 0.554.
For `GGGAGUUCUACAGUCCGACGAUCCUAGUCAUGUAAGCCACUAAGAUAGAAGGCCAGUCUCAGUUUCCCUAGGGAAGAGCCCAUCCUGGAGGCAGCCACAGUUUCCUCCCAUGGAGAUGGUCUGGAUAAAAGCCUGGAAUUCUCGGGUGCCAA`, “RBNS enrichment (R)” read 0.259.
Under “RBNS enrichment (R)”, `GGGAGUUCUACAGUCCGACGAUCUCCGGGUGGGGUACCUACACUGAUGCUGCUAGAGGAACAGGUAAAGAUCCCAGAGGGAUAGAGGAGACAGUGAUCUGGGCUCUGUUUAGGAAUGGACUUUCCCCUAGGUAUGGAAUUCUCGGGUGCCAA` is recorded as 2.43.

Sample 4
Target: PABPC1L2, full length, GST fusion (mouse, UniProt A0ABA7IW68)
Technique: RNAcompete
Molecule type: RNA
Medium: in vitro
Concentration: 20 nM
Notes: 7-mer, probes averaged, single round
Baseline: mean of 7-mers
Reading: higher = stronger binding
Construct (chain): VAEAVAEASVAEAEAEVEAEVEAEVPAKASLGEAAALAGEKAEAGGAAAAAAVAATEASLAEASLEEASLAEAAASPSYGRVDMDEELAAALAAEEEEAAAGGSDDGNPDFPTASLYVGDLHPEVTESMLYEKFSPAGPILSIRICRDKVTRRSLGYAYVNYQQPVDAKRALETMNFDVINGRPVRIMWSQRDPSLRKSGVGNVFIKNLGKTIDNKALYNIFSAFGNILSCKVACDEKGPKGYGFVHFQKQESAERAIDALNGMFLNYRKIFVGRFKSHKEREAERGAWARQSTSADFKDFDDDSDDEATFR
`GCUCAGG` gave a 7-mer Z-score of 0.109.
`GGGGAUA` gave a 7-mer Z-score of 0.428.
The 7-mer Z-score of `GCUAGGA` is reported as 0.231.
For `AUAGCGU`, the 7-mer Z-score was -0.199.
`UGGCUAA` has a 7-mer Z-score of 0.126.
The 7-mer Z-score of `CCAGCCA` is reported as -0.219.
For `AAGACAA`, the 7-mer Z-score was 0.666.
For `AUGAGAG`, the 7-mer Z-score was -0.0863.
With `CGGACGU` the 7-mer Z-score was -0.0627.
The 7-mer Z-score of `AUUCCGC` is reported as -0.364.
With `AUAAGAU` the 7-mer Z-score was -0.0101.
The 7-mer Z-score of `UAGCUUC` is reported as -0.425.
With `GUUUGAA` the 7-mer Z-score was -0.371.
For `GUAACUU`, the 7-mer Z-score was -0.208.
`GCCGACC` has a 7-mer Z-score of -0.171.
The 7-mer Z-score of `CGCACAA` is reported as -0.0192.
`UUUGCUC` gave a 7-mer Z-score of -0.46.
For `GCGUUAU`, the 7-mer Z-score was -0.333.
With `CGCGAAU` the 7-mer Z-score was -0.137.
`UCUGUGG` has a 7-mer Z-score of -0.155.

Excerpt of the above (sample 3):
Under “RBNS enrichment (R)”, `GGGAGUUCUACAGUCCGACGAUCAAACAAUACUUUUUGUAUUAUCUAGAGUCAGCCCACUUCAACAGAUUUUUCUCUCACUAACUGAAAGUGUGUUGAGUCUCUACUUUCUGUCAGUCGUGUAUUAUACUAAGUGGAAUUCUCGGGUGCCAA` is recorded as 0.311.
Under “RBNS enrichment (R)”, `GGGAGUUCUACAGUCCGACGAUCCCUUCCAAGUGUUUGCCAUGUGGCAGGCUUUGUUCUGGCUCAGUUUCCAAUUAGAAAGUGGAAAUCUAGAGAUCCAGAUGAACAUAUCCAUCUCAGGAGGCACGGAGGGAUGGAAUUCUCGGGUGCCAA` is recorded as 0.639.
`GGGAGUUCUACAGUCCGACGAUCGCCUUUGUCCGAAAAAUCUAUACUAAUGUGAAAAUUGACUAGAGACCCAAGAAAACCUGGAACUUUGGAUCAAUUUCUUUUUCAUAGGGGUGGAACUUGCACAGCAAAAAUGGAAUUCUCGGGUGCCAA`: “RBNS enrichment (R)” 0.336.
Under “RBNS enrichment (R)”, `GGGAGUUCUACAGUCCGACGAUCUCGGGGAGGGAUUCGGCAUGGCCGCGGGGUACCUUCCCAGGCCAGGGCCCUGGAGGCAACUGGCACGGCCUGGUCCCCCUGCUUUGCUGUAUUCUGAUUCCCCAACCCGCUGGAAUUCUCGGGUGCCAA` is recorded as 0.21.
`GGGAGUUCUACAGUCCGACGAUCUGCUUCUCAUUUGUUUAUGUAUUCAUGAAUACUGCAUAGUCCUGAUUCAGAGACUUUUGCUUUGCUUUCCAACUUGUAUCCCUACAUUCUCACAACAGCCUUCUUACCUCUGGAAUUCUCGGGUGCCAA`: “RBNS enrichment (R)” 0.554.
Under “RBNS enrichment (R)”, `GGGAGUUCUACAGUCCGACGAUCUCCGGGUGGGGUACCUACACUGAUGCUGCUAGAGGAACAGGUAAAGAUCCCAGAGGGAUAGAGGAGACAGUGAUCUGGGCUCUGUUUAGGAAUGGACUUUCCCCUAGGUAUGGAAUUCUCGGGUGCCAA` is recorded as 2.43.
`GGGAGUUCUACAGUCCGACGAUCUGCUCUUAGUUACAUGUAAAAUUUUAGAUUUCUAAAACAGGUGGGCAAUCAUUUUGAAUACUGUUCUGUGACCCUGACUGCUAGUUCUGAGGACACUGGUGGCUGUGCUAUGGAAUUCUCGGGUGCCAA`: “RBNS enrichment (R)” 0.511.
For `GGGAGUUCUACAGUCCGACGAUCCUAGUCAUGUAAGCCACUAAGAUAGAAGGCCAGUCUCAGUUUCCCUAGGGAAGAGCCCAUCCUGGAGGCAGCCACAGUUUCCUCCCAUGGAGAUGGUCUGGAUAAAAGCCUGGAAUUCUCGGGUGCCAA`, “RBNS enrichment (R)” read 0.259.
